Experimental data collected from several papers.
“And” joins repeats or separate records; there may be more than shown. ± marks the error that the study gave. ≈ marks a conversion by molar mass, not a printed value.
TDP1: Tyrosyl-DNA phosphodiesterase 1 (TDP1, Homo sapiens, UniProt Q9NUW8)
UniProt Q9NUW8, sequence (whole entry, looked up): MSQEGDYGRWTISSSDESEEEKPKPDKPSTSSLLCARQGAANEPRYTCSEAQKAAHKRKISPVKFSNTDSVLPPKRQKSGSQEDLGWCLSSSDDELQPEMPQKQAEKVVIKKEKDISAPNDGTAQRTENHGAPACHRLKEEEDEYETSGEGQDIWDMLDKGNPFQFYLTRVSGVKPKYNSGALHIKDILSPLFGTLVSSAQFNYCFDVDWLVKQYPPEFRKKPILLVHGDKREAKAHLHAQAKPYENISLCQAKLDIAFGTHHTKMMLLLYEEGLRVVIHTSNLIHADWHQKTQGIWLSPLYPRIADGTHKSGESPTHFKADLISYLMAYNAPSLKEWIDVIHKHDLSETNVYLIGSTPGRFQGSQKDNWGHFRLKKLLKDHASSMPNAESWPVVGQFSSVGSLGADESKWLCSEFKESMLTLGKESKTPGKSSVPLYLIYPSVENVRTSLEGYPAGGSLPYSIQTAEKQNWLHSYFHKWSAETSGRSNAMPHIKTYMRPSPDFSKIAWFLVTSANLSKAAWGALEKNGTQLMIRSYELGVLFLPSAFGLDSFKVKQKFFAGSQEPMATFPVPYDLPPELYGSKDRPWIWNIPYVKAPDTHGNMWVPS

With `CC1(F)CN(C(=O)Cn2c(=O)c(C(=O)NCc3ccc(Cl)cc3)cc3nc(N4CCN(CCN)C4=O)cnc32)C1` the EC50 was 0.06 µM (Epstein-Barr virus; viral replication, qPCR; retest 2).
For `Cc1cc(C(=O)Nc2nc3cccc(C)c3n2[C@H]2CCCCN(C(=O)/C=C/CN(C)C)C2)ccn1`, the proliferation was 128% and 117% and 124% and 129% and 232% and 233% (Trypanosoma brucei brucei; Lister 427; 0.069 µM, 6 h, kill kinetics).
`CC(=O)O[C@@H]1[C@@H](OC(C)=O)[C@H](Sc2sc(C(=O)c3ccc(Br)cc3)c(N)c2-c2nc3ccccc3s2)OC[C@H]1OC(C)=O` has a viral reduction of 36.7% (human adenovirus 7; plaque reduction; non-toxic dose NG, mean over three titres).
`Nc1nc(-c2ccccc2)nc2[nH]nc(Nc3cccnc3)c12` gave an IC50 of 55.7 µM (rhinovirus A2; viral cytopathic effect; HeLa).
Under “air sac lesion score”, `C=C[C@]1(C)C[C@@H](OC(=O)CSc2ccc(NC(=O)c3ccco3)cc2)[C@]2(C)[C@H](C)CC[C@]3(CCC(=O)[C@H]32)[C@@H](C)[C@@H]1O` is recorded as 3 and 1 and 2 (Mycoplasma gallisepticum; infected chickens; intramuscular, 10 mg/kg daily x3, scale 0 to 4; direction not given).
The inhibition of `CN(Cc1ccccc1)c1ncc(C=NOCc2ccc(-c3nc4cc(-c5ccccc5)ccn4c3Nc3ccc(C(=O)O)cc3)cc2)s1` (mixture of isomers) is reported as 35.5% (TDP1; enzyme activity, inhibitor; 100 µM, unpurified compound).
The MIC of `CCCCCCCCCCn1cc[n+](CCCCOc2cc(OCCCC[n+]3ccn(CCCCCCCCCC)c3)cc(OCCCC[n+]3ccn(CCCCCCCCCC)c3)c2)c1.[Br-].[Br-].[Br-]` is reported as 1 µM (Enterococcus faecalis; OG1RF).
With `CC=C(C)C(=O)OC1CC2C(C=C(C)C3C(OC(C)=O)CC(=O)C13C)OC(=O)C2C` (stereo not shown) the inhibition was 0% (Helicobacter pylori; microbial growth, broth dilution; 0.98 µg/mL).
`Cc1ccc(C(=O)c2sc(S)c(-c3nc4ccccc4s3)c2N)cc1`: “viral titre reduction” 20% (coxsackievirus B4; plaque reduction; non-toxic concentration).
The IC90 of `COC1C=COC2(C)Oc3c(C)c(O)c4c(c3C2=O)C2=NC3(CCN(CC(C)C)CC3)NC2=C(NC(=O)C(C)=CC=CC(C)C(O)C(C)C(O)C(C)C(OC(=O)Nc2cnccn2)C1C)C4=O` (stereo not shown) is reported as 0.313 µM (Mycobacteroides abscessus; bacterial growth; subsp. massiliense 097 clinical isolate; rough, slow grower).
The inhibition of `O=C(O)c1ccc(Nc2c(-c3ccc(CON=Cc4c(O)ccc5cc([N+](=O)[O-])ccc45)cc3)nc3cc(-c4ccccc4)ccn23)cc1` is reported as 29.9% (TDP1; enzyme activity, inhibitor; 100 µM).
For `Cc1cccc2c1N(C(=O)n1ccnn1)CC2`, the germination rate was 51.3% and 65.7% and 78% and 84% and 71.4% and 70.6% (Arabidopsis thaliana; kai2 mutant, seeds; 10 µM, 72 h).
`CC(=O)OC[C@H]1O[C@@H](Sc2sc(C(=O)c3ccc(Cl)cc3)c(N)c2-c2nc3ccccc3s2)[C@H](OC(C)=O)[C@@H](OC(C)=O)[C@H]1OC(C)=O` gave a viral reduction of 0% (human adenovirus 7; plaque reduction; non-toxic dose NG, mean over three titres).
`COc1ccc(Nc2n[nH]c3nc(-c4ccccc4)nc(N)c23)cc1` has an IC50 of 17.2 µM (rhinovirus A2; viral cytopathic effect; HeLa).
`Nc1c(C(=O)c2ccc(Br)cc2)sc(S)c1-c1nc2ccccc2s1` gave a viral reduction of 33.3% (coxsackievirus B4; plaque reduction; non-toxic dose NG, mean over three titres).
`CO[C@@H]1OC[C@@H](O)[C@H](O)[C@H]1O` gave an inhibition of 0% (Helicobacter pylori; microbial growth, broth dilution; 0.98 µg/mL).
With `Cc1ccc(S(=O)(=O)Nn2c3c(cc(-c4nc5ccccc5s4)c2=O)CCCC3)cc1` the plaque reduction was 30% (human adenovirus 7; viral replication, plaque; HEp-2; non-toxic dose, mean of three titres).
`O=C(CCCc1cn(C[C@H]2O[C@@H]3O[C@H]4[C@H](O)[C@@H](O)[C@@H](O[C@H]5[C@H](O)[C@@H](O)[C@@H](O[C@H]6[C@H](O)[C@@H](O)[C@@H](O[C@H]7[C@H](O)[C@@H](O)[C@@H](O[C@H]8[C@H](O)[C@@H](O)[C@@H](O[C@H]2[C@H](O)[C@H]3O)O[C@@H]8Cn2cc(CCCC(=O)N[C@H]3CCOC3=O)nn2)O[C@@H]7Cn2cc(CCCC(=O)N[C@H]3CCOC3=O)nn2)O[C@@H]6Cn2cc(CCCC(=O)N[C@H]3CCOC3=O)nn2)O[C@@H]5Cn2cc(CCCC(=O)N[C@H]3CCOC3=O)nn2)O[C@@H]4Cn2cc(CCCC(=O)N[C@H]3CCOC3=O)nn2)nn1)N[C@H]1CCOC1=O` gave an inhibition of 7 ± 2% (Escherichia coli; LuxR reporter, antagonist; DH5α sensor strain; 4 µM, added: OHHL 200 nM).
With `CCCOC(=O)N1c2cc(CNC)ccc2[C@H](NC(=O)C(=O)Nc2ccc(Cl)c(F)c2)[C@H]1CNC(=N)N` the IC80 was over 100 µM (Human immunodeficiency virus 1; viral infection, Env pseudovirus; TZM-bl, C2101.c01 CRF01_AE).
`CC(=O)O[C@@H]1[C@@H](OC(C)=O)[C@H](Sc2sc(C(=O)c3ccc(C)cc3)c(N)c2-c2nc3ccccc3s2)OC[C@H]1OC(C)=O` — result for “viral titre reduction”: 20% (coxsackievirus B4; plaque reduction; non-toxic concentration).
With `C=C(NC(=O)c1csc(-c2nc3c(cc2O)-c2nc(cs2)C(=O)NC(C(C)O)C(=O)NC(=C(C)OC)c2nc(cs2)C(=O)NC2c4nc(cs4)C(=O)NC(COC(=O)c4c5c6c(cccc6n4O)COC(=O)C(OC4CC(C)(O)C(N(C)C)C(C)O4)C2OC5)c2nc-3cs2)n1)C(N)=O` (stereo not shown) the MIC50 was 7.8 ng/mL (≈ 5.43 nM) (Streptococcus pneumoniae; PRSP; 10 isolates).
`CCCCCCCCCC(=O)N[C@@H](Cc1c[nH]c2ccccc12)C(=O)N[C@H](CC(N)=O)C(=O)N[C@@H](CC(=O)O)C(=O)N[C@@H]1C(=O)NCC(=O)N[C@@H](CCCNC(=O)OC2/C=C/CCCCC2)C(=O)N[C@@H](CC(=O)O)C(=O)N[C@H](C)C(=O)N[C@@H](CC(=O)O)C(=O)NCC(=O)N[C@H](CO)C(=O)N[C@@H]([C@H](C)CC(=O)O)C(=O)N[C@@H](CC(=O)c2ccccc2N)C(=O)O[C@@H]1C` (stereo partly shown) — result for “peak heat flow”: 0 µW (Staphylococcus aureus; planktonic bacterial growth, isothermal microcalorimetry; MSSA; 1.0 µg/mL, 24 h, 37 °C).
With `Cc1ccc(Nc2n[nH]c3nc(-c4ccc(F)cc4)nc(N)c23)cc1` the IC50 was 13.5 µM (rhinovirus A2; viral cytopathic effect; HeLa).
`C/C=C(/C)C(=O)O[C@@H]1C=C(C)CC[C@]2(O)[C@@H](C(C)C)CC(=O)[C@]12C` has an inhibition of 0% (Helicobacter pylori; microbial growth, broth dilution; 3.9 µg/mL).
The spleen weight of `CC(C)(C)NCC(SS(=O)(=O)O)c1ccccc1` (stereo not shown) is reported as 0.81 g (Schistosoma mansoni; perfusion day 52; infected Swiss Webster mice; 400 mg/kg single dose, 1248 h, dosed day 7 post-infection).

Excerpt of the above:
For `Cc1cc(C(=O)Nc2nc3cccc(C)c3n2[C@H]2CCCCN(C(=O)/C=C/CN(C)C)C2)ccn1`, the proliferation was 128% and 117% and 124% and 129% and 232% and 233% (Trypanosoma brucei brucei; Lister 427; 0.069 µM, 6 h, kill kinetics).
`CC(=O)O[C@@H]1[C@@H](OC(C)=O)[C@H](Sc2sc(C(=O)c3ccc(Br)cc3)c(N)c2-c2nc3ccccc3s2)OC[C@H]1OC(C)=O` has a viral reduction of 36.7% (human adenovirus 7; plaque reduction; non-toxic dose NG, mean over three titres).
